Published values collected from several papers.
Parts stem from different laboratories: compare values within a part only.

Sample 1 — technique: RNAcompete; molecule type: RNA; sample: in vitro; tested at: 20 nM; setting: 7-mer, probes averaged, single round; baseline: mean of 7-mers; reading: higher = stronger binding; quantity: 7-mer Z-score
Target: PABPC1L2, full length, GST fusion (mouse, UniProt A0ABA7IW68)
Residues (chain): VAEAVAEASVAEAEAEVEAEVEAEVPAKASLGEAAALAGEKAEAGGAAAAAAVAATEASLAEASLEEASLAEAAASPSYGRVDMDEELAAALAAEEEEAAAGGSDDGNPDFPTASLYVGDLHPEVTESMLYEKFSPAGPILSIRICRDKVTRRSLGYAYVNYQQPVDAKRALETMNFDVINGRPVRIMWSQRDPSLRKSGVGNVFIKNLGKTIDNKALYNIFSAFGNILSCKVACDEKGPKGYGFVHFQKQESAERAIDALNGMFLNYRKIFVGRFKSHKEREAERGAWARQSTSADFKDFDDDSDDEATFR
GGUAGUC: -0.079
CGCUUCG: -0.34
CAAACCA: 0.0895
AUACCCC: -0.411
CCUAUCA: -0.231
CCGGGGG: -0.0156
UUACCAC: -0.166
GGCAUUG: -0.00289
AGUAAGU: -0.157

Sample 2 — technique: protein binding microarray; molecule type: double-stranded DNA, one strand shown; sample: in vitro; tested at: not given; baseline: not given; reading: higher = stronger binding; quantity: E-score
Target: Histone acetyltransferase KAT6A, winged helix 2, GST fusion (KAT6A, Homo sapiens, UniProt Q92794, residues 85-181)
Setting: 8-mer, flanks averaged, mean of 2 arrays, mostly near background
Construct (chain): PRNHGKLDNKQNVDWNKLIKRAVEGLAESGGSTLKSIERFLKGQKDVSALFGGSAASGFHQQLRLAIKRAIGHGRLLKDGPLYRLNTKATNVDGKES
CGCCAACA: 0.143
CAGGCAGC: 0.0891
AATGCCAT: 0.0843
GCCGAGTA: 0.129
AAAACGGT: -0.102
CTAGTGAC: -0.00893
AGGGATAT: -0.0577
CTAGACAA: -0.0581
ACCCAAGA: 0.0949
AGGACTCC: -0.0881

Sample 3 — technique: protein-binding microarray; molecule type: double-stranded DNA, one strand shown; sample: in vitro; tested at: 2540 nM top; setting: 60-bp whole probe; added: salmon DNA 0.4 mg/ml; baseline: random background probes; reading: higher = stronger binding; quantity: fitted relative affinity; shared flanks, not repeated: GCCTAGCAC … GTCTTGATTCGCTTGACGCTGCTG
Target: Interferon regulatory factor 3, full length, phosphomimetic (IRF3, Homo sapiens, UniProt Q14653, residues 1-427, S386D/S396D/S398D/S402D/T404D/S405D)
Residues (chain): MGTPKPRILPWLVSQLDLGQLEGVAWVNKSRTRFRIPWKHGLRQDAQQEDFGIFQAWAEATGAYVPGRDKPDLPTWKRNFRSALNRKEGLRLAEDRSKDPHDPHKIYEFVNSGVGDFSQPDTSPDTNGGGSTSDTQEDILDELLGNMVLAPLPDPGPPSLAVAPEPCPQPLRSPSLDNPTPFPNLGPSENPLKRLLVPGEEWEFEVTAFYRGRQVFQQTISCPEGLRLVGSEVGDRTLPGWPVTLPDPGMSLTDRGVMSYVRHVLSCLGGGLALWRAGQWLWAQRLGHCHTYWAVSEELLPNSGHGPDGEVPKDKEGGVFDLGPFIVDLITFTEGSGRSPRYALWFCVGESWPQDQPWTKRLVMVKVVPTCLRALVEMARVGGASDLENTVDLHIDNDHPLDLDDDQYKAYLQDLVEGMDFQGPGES
TCTTTTATTTTTTTTATTTAGTGCTAG: 2.04 z-score
GACGGACTGGGGTTTCGCGACGTGCTA: -0.661 z-score
TTAGGTTTCTGTATCGGTTAGTGCTAG: 5.03 z-score
GCCGGTATCCTTTTCCTGACGTGCTAG: 7.75 z-score
GGAGCGCCAGGCCCCGGCAGGTGCTAG: -1.51 z-score
GACGTTATCGGGACTGGAGACGTGCTA: 0.373 z-score

Mixed results
PhoQ, residues 284 288 289 292 302 303 TGYLSA — fold induction (PhoP, residues 12 14 15 18 19 NHTVL (Escherichia coli, UniProt P23836); Sort-seq, measured: YFP reporter; E. coli; PhoQ-PhoP variant library, added: 10 µM Mg2+; baseline: high Mg2+ state, higher = stronger signaling): 0.118

Some of these lines once more (sample 1):
CGCUUCG: -0.34
